Published values from different studies.
Every numbered part comes from another study and shows a few of its results, in no order. Changes are numbered by the printed parent chain.

Block 1 — technique: RNA Bind-n-Seq; form: RNA; medium: in vitro; concentration: 365 nM; reference: no-protein control; reading: higher = stronger binding; measurement: RBNS enrichment (R)
Target: RNA binding protein fox-1 homolog 2, RRM domain, GST-SBP tag (RBFOX2, Homo sapiens, UniProt O43251-10, residues 100-194)
Notes: natural RNA segment, single round, ends assumed
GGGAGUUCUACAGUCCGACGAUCGGAUAUGGUUUACAUUACCGUUUGUUUUCAUUGUGAUUGCCCCUAUGUAACAAUCAUGAAUAUUAGAUUUUUUAAAUUGUAGAAUAUCCUAAUAUUUAUAGCCAGCAGCUUGGAAUUCUCGGGUGCCAA: 0.394
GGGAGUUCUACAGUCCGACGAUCGCUCAAAUAUUCCCCAGGGAGACUGCUGUGUGCUGCCCGCCUGCCUGCUGGCUCUCCCCCAGCCCCACAUCCCCUCUGGAAGAGAAUGUAAAAUAAACCUGGACACAAGGUGGAAUUCUCGGGUGCCAA: 0.996
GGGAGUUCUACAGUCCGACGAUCAACAAAACUGAUACAAUCUGCUGCCUAUUGUUUGAGGACCCACUGAGUAAUGUUUGUGGCUAUUAAAAUGCAUUAUCAUUAUCCACUUCAAUAGCAUUUUCCUCUGCUUUUGGAAUUCUCGGGUGCCAA: 0.608
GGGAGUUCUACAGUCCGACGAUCAGGACCACUUGAGUGGGCAGCCAAGCCCAGGCUCGCAGUAUCAAUAAAGCAGUUCUCUGAGGAAUGAUCCUGGGCUCUUGUCAGGCCACCUUGUGCAGCCCCCUCAUCACUGGAAUUCUCGGGUGCCAA: 0.454
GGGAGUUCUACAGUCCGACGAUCUUUACCCUCUUGAAAUUUCUUAGCCAGCAACUUGUUCUGCAGGGGCCCACUGAAGCAGAAGGUUUUUCUCUGGGGGAACCUGUCUCAGUGUUGACUGCAUUGUUGUAGUCUGGAAUUCUCGGGUGCCAA: 0.362
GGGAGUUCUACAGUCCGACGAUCCCUGGUGAGUUAUCAGCCAGUUAAACUUGUAAGCCAGUUUUGUUUAUAAUAAAGAUAUAAGUGGAUUUUAAGGUUCCAUUUUUUUAAGGUUACCCUUGUUUUUCAAAGGUUGGAAUUCUCGGGUGCCAA: 0.883
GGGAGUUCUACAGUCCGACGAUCUUAGCUGGGUCUUUCAUAGCCAAACUUGUAUAUUUAAAUUCUUUGUAAUAAUAAUAUCCAAAUCAUCAUCUUGUGUCAUGGUUUAAUUUUUCUAGGUAAGAAAAUAUGUUUGGAAUUCUCGGGUGCCAA: 0.487
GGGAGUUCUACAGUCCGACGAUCCCCAUGUGCUCGGUGUUCAGUGGUGUAUAUUUCUUCUCCCAGACAUGGGGCACACGCCCCAAGGGACAUGAUCCUCUCCUUAGUCUUAGCUCAUGGGGCUCUUUAUAAGGUGGAAUUCUCGGGUGCCAA: 0.458
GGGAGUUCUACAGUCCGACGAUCGAGGCCAUGAGGAGCGCGAGGUCGCCAGCAGCCCCACUGGGCCUCCCACACCAUCUGAGUGACUUGAAUUCCAGGGUUGGGCUCUGUCUUGAGUCUCCACAUCAGUCUCAUGGAAUUCUCGGGUGCCAA: 0.547

Block 2 — target: CCND2, cyclin fold, Cln2 fusion (human); technique: yeast growth competition, sequencing; medium: yeast; notes: weak parent motif; reference: not given; reading: higher = stronger binding; measurement: normalised enrichment score
Starting sequence: BRCA2 docking peptide (human); PSIKRNLLNEFDR; partner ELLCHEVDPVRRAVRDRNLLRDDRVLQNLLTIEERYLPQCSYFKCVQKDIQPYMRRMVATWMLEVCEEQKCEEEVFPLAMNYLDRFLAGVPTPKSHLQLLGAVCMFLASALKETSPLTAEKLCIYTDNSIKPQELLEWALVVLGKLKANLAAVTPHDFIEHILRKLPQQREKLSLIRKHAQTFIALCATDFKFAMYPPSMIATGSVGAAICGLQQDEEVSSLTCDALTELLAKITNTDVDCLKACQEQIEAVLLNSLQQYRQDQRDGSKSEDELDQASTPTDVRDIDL
PSIIRNLLNEFDR [K4I]: 0.263
ASIKRNLLNEFDR [P1A]: 0.089
PSIKRNLLNEGDR [F11G]: 0.146
PSLKRNLLNEFDR [I3L]: 0.815
PSIKRGLLNEFDR [N6G]: -0.576
PSIKRNLGNEFDR [L8G]: -0.0858
PIIKRNLLNEFDR [S2I]: 0.879
PAIKRNLLNEFDR [S2A]: 0.186
PSIKRNLLNLFDR [E10L]: 0.0531
PSIKRNLLNEFDL [R13L]: -0.321
PSIKRNLLNENDR [F11N]: -0.322
PSIKRNLLNWFDR [E10W]: 0.0632
HSIKRNLLNEFDR [P1H]: -0.0205
MSIKRNLLNEFDR [P1M]: 0.356
PSIKRNLLNAFDR [E10A]: -0.137
PSIKRNLTNEFDR [L8T]: 0.275
PSIKRNLFNEFDR [L8F]: 0.167

Block 3 — technique: competition protein-binding microarray; form: double-stranded DNA, one strand shown; medium: in vitro; concentration: 2 µM; together with: Cbf1 competitor, 0.05 µM; reading: higher = stronger binding; measurement: fluorescence intensity
Target: Phosphate system positive regulatory protein PHO4, full length, GST-tagged (PHO4, Saccharomyces cerevisiae, UniProt P07270, residues 1-312)
Notes: whole 60-bp probe, lowest competitor level
Target sequence (chain): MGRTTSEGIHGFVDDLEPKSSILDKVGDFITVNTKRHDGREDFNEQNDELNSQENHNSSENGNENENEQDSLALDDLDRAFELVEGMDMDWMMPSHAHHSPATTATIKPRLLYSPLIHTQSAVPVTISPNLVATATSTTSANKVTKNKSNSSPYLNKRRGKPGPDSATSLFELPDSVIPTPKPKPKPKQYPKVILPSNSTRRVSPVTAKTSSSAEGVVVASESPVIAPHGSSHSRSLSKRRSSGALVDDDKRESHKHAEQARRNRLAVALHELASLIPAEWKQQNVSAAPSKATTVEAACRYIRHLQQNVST
GTTAAAACTCAATTATGCGTGGGACTTCTCAATTAGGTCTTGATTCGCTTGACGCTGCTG: 8080 a.u.
AGATATACACGATCGCACATGGTTCCAAGACGGTTAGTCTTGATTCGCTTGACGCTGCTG: 9890 a.u.
CTTTGCTCCATACAGCATGTGGAGCAGGCGTACTTGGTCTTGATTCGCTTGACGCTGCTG: 9300 a.u.
TTTGAAAAAACCCATCACGCAGTGGCCGATGTAATTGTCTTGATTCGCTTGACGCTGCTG: 5930 a.u.
GCACCATATTTTAGTTCCGTGATGGTCAAGAATTTTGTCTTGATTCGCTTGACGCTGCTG: 3620 a.u.
CCGACGTCCGCCTTGCATGCGCTCTCGCATTTTTAAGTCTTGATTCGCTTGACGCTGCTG: 6780 a.u.
CTAACGAAGGTTTGCGGTGTGGGTGACAAGCCAAGTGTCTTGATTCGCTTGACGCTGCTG: 5180 a.u.
TCCAAAATTGACTCGCATGTGGTGTTGTCATTTTCTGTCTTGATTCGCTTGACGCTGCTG: 10100 a.u.
GAATGTATGGATCGTCAGGTGGGCATTTGTTAACTTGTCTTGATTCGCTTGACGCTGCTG: 4730 a.u.
GCTCATTCCACCTCACACCTGATTAACTAAAAGTTTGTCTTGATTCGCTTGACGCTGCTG: 5600 a.u.
ATTTCCCACTTCAACAACGTGCAATAATGGCTCAATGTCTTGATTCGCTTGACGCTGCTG: 14300 a.u.
CAGCAAGACCGGAAACACGTTGTTGGGTAAATACTTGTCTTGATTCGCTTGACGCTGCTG: 14200 a.u.
CGGGGTTAAGTTTTTCACGTGAACTGCTTGCAGCAGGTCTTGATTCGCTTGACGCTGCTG: 7570 a.u.
CAACAATATACCCAACACGTGGATTTGCCAGCCTGTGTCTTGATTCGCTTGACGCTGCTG: 16800 a.u.
GTCTTGTCTCATTTTCACGTGACCTTCCCCACTTCAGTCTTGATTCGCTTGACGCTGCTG: 11600 a.u.
CCCAATCTGAGAGAGAACGTGCCGAGGCCGCCTTCAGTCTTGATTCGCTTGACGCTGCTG: 12300 a.u.
CATACCCAACCTTGCAGTGTGGGTGAAGATATTTGTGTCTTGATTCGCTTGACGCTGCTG: 5870 a.u.
GTCTTGTCTCATTGCACCGTGGGTGTCCCCACTTCAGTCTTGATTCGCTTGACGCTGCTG: 9450 a.u.

Block 4 — technique: RNA Bind-n-Seq; form: RNA; medium: in vitro; concentration: not given; reference: input RNA pool; reading: higher = stronger binding; measurement: bound/input enrichment
Target: RING finger protein unkempt homolog, zinc fingers 1-6, GST-SBP tag (UNK, Homo sapiens, UniProt Q9C0B0, residues 30-357)
Notes: RNA with constant flanks, human-mouse chimeric sites, ends assumed
Residues (chain): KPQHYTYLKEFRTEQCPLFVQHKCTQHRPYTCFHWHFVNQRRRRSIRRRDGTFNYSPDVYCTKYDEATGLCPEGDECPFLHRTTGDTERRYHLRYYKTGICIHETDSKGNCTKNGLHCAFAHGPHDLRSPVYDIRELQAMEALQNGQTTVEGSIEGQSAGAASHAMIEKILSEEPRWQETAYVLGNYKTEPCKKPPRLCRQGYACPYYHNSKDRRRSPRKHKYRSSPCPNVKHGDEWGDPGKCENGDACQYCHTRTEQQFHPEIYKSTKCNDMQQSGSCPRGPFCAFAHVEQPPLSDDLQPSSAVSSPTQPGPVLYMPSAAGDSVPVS
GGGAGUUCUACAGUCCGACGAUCUUGAAAACUGAUUCAAGUAAGUUUGAGUAUCACAAUGUUAGCUUUCUAAUUCCACACAAGUACUUGGUUUUUACAGUAACCCCACAUACAUCACCCCAGCGCCAUUUGUAAAGAGCAACUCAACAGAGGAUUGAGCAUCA: 1.08 ratio
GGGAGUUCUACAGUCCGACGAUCGCUCUUGGGAAUGUAAUCAGCGCCUUGGGAGACAAGAGCAAGAGAGCCACCCAUGUCCCUUACAGAGACUCUAAGCUGACAAGACUCUUGCAGGAUUCCCUUGGGGGUAAUAGCCAAACCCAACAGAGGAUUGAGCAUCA: 0.167 ratio
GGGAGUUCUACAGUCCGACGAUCUUGCCUGAGAACGAGGAUGAGCUGGAGAGCACCAACAGGCGCUACACCAAGAGGGACUGCAGCACUUUCCUCAGAACUAGUGAGACGGGCAUCGUGGAUCAGGUUAUGGUCACUCUCAACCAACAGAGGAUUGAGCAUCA: 0.0889 ratio
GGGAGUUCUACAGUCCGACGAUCAACUUCGUGCAUCGGUUUCCCUUUGUAGCUGUUUCAAUUGGCUUUGCUGUGAAUAAAGAGAUGGAGUUUGGAAUUGUGUACAGUUGUGUGGAAGAUAAGAUGUACACCGGCAGGAAAGGGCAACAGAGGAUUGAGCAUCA: 0.562 ratio
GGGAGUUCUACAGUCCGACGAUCCUGUGUGUGCUGAAUAAAUGGCUUGUAAGAACUGUCCCCAAGUUGUAAACCCAUGCUGUUAUUAUAGUUGCUGCAAAAUGUUCUUCCUGAUAUUGAUUUUAUUUGUUAACUGAAGGUCUCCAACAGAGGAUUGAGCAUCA: 0.67 ratio
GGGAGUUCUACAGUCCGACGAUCUUAAUCCCCUUCGUUGCUCCCCCACUUCUCAUGGUAAUAACAAAGUCUUAUAUCCCCGUCCUAGCUUUCACUCAGAUGGCUUAUGGAGCCGGUUUCCUAUCUUUCUUGGGAGGGAUCAGACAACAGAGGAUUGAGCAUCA: 0.297 ratio
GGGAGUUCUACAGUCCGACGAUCGCACUUCUCAAAUACUGGCCAAAGACUCACAGUCCAAAAGAAGUAAUGUUCUUAAACGAAUUAGAAGAAAUUUUAGAUGUAAUUGAACCAUCAGAGUUUGUGAAGAUCAUGGAACCCCUUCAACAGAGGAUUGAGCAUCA: 1.9 ratio
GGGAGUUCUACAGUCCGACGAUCUUGAAAACUGAUUCAAGUAAGUUUGAGUAUCACAAUGUUAGCUUUCUAAUUCCAUAAAAGUACUUGGUUUUUACAGUUUAUAAUCUGACAUCACCCCCCGUUUAUAAGUAAAGAGCAACUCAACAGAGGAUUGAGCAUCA: 0.926 ratio
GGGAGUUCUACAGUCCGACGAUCUCUUAACUUAUUCAUUUAACUUAUUUUUAUAGCUAGAGCAAUAUUGUUAGUCUUAGACAAUAGCUCACAUUUUUUGAGAAGCAUGCCCUCCCUGUCCAUUUGUCUUAUAACAUGACCCAGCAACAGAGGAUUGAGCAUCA: 114 ratio
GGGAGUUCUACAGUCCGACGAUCACACAAUAUGAGACCAACAGCAUGGACUUCAAAGUCGGGGCAGAUGGGACAGUCUUCGCCACCCGGGAGCUGCAGGUCCCCUCAGAGCAGGUGGCGUUCACGGUGACUGCAUGGGACAGCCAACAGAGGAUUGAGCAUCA: 0.233 ratio
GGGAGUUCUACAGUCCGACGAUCCUUAAUGUUAAUAUUUUUAAAGGAAGCAAGCUAAAAUGUCUGCUUUUGGUACAACACGCAUUAAUAAAAGGUUAAGUAAGUUUUGUUACUGAAGUACUAUUUAACAUCUCAGAAAAAAACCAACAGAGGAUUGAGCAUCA: 0.134 ratio

Excerpt of the above (block 2):
PSIKRNLLNLFDR [E10L]: 0.0531
PSIKRNLTNEFDR [L8T]: 0.275
PSIKRNLLNENDR [F11N]: -0.322
HSIKRNLLNEFDR [P1H]: -0.0205
PSIIRNLLNEFDR [K4I]: 0.263
PIIKRNLLNEFDR [S2I]: 0.879
MSIKRNLLNEFDR [P1M]: 0.356
